Assay results gathered from unrelated publications.
Parts stem from different laboratories: compare values within a part only. Positions count from the first letter of the parent shown.

Study 1
Target: Interferon regulatory factor 5, full length, phosphomimetic (IRF5, Homo sapiens, UniProt Q13568-2, residues 1-514, S451D/S453D/S456D/S462D)
Method: protein-binding microarray
Form: double-stranded DNA, one strand shown
Sample: in vitro
Concentration: 940 nM top
Setting: 60-bp whole probe
With: salmon DNA 0.4 mg/ml
Baseline: random background probes
Reading: higher = stronger binding
Endpoint: fitted relative affinity
Constant ends, left off below: GCCTAGCAC … GTCTTGATTCGCTTGACGCTGCTG
Sequence = TTAGAACTGAGACTGGATTAGTGCTAG; result = -0.157 z-score
Sequence = TCATGTTTGTCACTCTCAGAGTGCTAG; result = 0.721 z-score
Sequence = TCATTTTTCTACTTCTCACTGTGCTAG; result = 2.08 z-score
Sequence = GACGGACTCGGTTTCGGGACGTGCTAG; result = 3.22 z-score
Sequence = CTATAAAGCATCAGGAAAGCGTGCTAG; result = -0.354 z-score
Sequence = TTAGGTTCCGGGTTTCGGTTAGTGCTA; result = 6.24 z-score
Sequence = GAAACACTAATTTTTACTTTGTGCTAG; result = 0.834 z-score
Sequence = GTCGATCTCAGACTGGAGACGTGCTAG; result = -0.16 z-score
Sequence = ATTTACATGCATATAGTATAGTGCTAG; result = -0.0807 z-score
Sequence = CAAGGCAAGAAACAAACAACGTGCTAG; result = -0.414 z-score
Sequence = GAGGATTTCAGTATCGAGACGTGCTAG; result = 2.08 z-score
Sequence = TTAGATTTCGGGACCGGATTAGTGCTA; result = 0.866 z-score
Sequence = GACGAGCTGAGACTGGAGACGTGCTAG; result = -0.668 z-score
Sequence = TCATTATCCTATATCTGACTGTGCTAG; result = 0.51 z-score
Sequence = TTAGGTCTCCGTCTCCTTTAGTGCTAG; result = 0.43 z-score
Sequence = TCATATGTCATTTACATACTGTGCTAG; result = 0.139 z-score
Sequence = GACCGACTGGACTTTCGGGACGTGCTA; result = 1.01 z-score
Sequence = GACGGACTGGGTCGCGGGACGTGCTAG; result = -0.75 z-score
Sequence = TCATTTCTCTTTCATTGCACTGTGCTA; result = 2.04 z-score

Study 2
Target: ABI1, truncated, D143A, DHFR fusion (Arabidopsis thaliana)
Method: DHFR PCA, deep sequencing
Sample: yeast
Setting: methotrexate growth selection, single substitutions
With: (+)-ABA 0.0091 µM
Baseline: wild-type fitted maximum
Reading: higher = stronger binding
Endpoint: relative binding score
Starting sequence: PYL1, truncated, DHFR fusion (Arabidopsis thaliana); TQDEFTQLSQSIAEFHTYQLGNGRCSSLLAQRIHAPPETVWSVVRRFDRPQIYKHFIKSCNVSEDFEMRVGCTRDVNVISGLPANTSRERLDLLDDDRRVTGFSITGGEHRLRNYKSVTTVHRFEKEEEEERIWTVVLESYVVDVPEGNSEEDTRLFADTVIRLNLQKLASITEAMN
Substitution = A158E; result = -2.99%
Substitution = S26C; result = 12.5%
Substitution = N85I; result = 70.4%
Substitution = E147L; result = 9.26%
Substitution = G108A; result = -3.41%
Substitution = S140P; result = 5.73%
Substitution = L28A; result = -0.0719%
Substitution = T6P; result = 51.6%
Substitution = W134A; result = 5.68%
Substitution = T119I; result = -9.73%
Substitution = E152H; result = 4.68%
Substitution = T173S; result = 20.6%
Substitution = I133T; result = 37.1%
Substitution = I79H; result = 21.7%
Substitution = V43F; result = 2.42%
Substitution = I33A; result = 1.08%

Study 3
Target: UBE2L6 UBC core domain (UniProt O14933)
Method: yeast two-hybrid
Sample: yeast
Setting: mostly zero background
Baseline: not given
Reading: higher = stronger interaction
Endpoint: lacZ reporter activity
B1: MARCHF1 RING domain (UniProt Q8TCQ1); chain TAPRSQSRLSVCPSTQDICRICHCEGDEESPLITPCRCTGTLRFVHQSCLHQWIKSSDTRCCELCKYDFIMETKLKPLRKWE
B2: RUFY1 RING domain (UniProt Q96T51); chain QALKGHAWLKDDEATHCRQCEKEFSISRRKHHCRNCGHIFCNTCSSNELALPSYPKPVRVCDSCHTLLLQRCSSTAS
B3: VPS8 RING domain (UniProt Q8N3P4); chain TRGLNPKQDYCSICLQQYKRRQEMADEIIVFSCGHLYHSFCLQNKECTVEFEGQTRWTCYKCSSSNKVGKLSE
B4: MKRN3 RING domain (UniProt Q13064); chain FAVQRGMDKVCGICMEVVYEKANPNDRRFGILSNCNHSFCIRCIRRWRSARQFENRIVKSCPQCRVTSELVIPSE
B5: RNF103 RING domain (UniProt O00237); chain WPADMLHCTECVVCLENFENGCLLMGLPCGHVFHQNCIVMWLAGGRHCCPVCRWPSYKKKQPY
B6: RING1 RING domain (UniProt Q06587); chain SPRSLHSELMCPICLDMLKNTMTTKECLHRFCSDCIVTALRSGNKECPTCRKKLVSKRSLR
B7: TRIM11 RING domain (UniProt Q96F44); chain LSTNLQEEATCAICLDYFTDPVMTDCGHNFCRECIRRCWGQPEGPYACPECRELSPQRNLRP
B8: HLTF RING domain (UniProt Q14527); chain LILSSGSDEECAICLDSLTVPVITHCAHVFCKPCICQVIQNEQPHAKCPLCRNDIHEDNLLE
B9: BFAR RING domain (UniProt Q9NZS9); chain GPQISVSEFSCHCCYDILVNPTTLNCGHSFCRHCLALWWASSKKTECPECREKWEGFPKVS
B10: CNOT4 RING domain (UniProt O95628); chain MSRSPDAKEDPVECPLCMEPLEIDDINFFPCTCGYQICRFCWHRIRTDENGLCPACRKPYPED
Construct (chain): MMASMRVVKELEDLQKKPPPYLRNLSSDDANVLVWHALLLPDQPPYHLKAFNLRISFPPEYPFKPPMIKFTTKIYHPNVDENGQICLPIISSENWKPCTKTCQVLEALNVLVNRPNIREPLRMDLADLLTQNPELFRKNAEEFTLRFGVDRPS
Sequence = B1 (MARCHF1 RING domain); result = 0
Sequence = LVKDFNPYITCYICKGYLIKPTTVTECLHTFCKTCIVQHFEDSNDCPRCGNQVHETNPLE (PCGF5 RING domain (UniProt Q86SE9)); result = 0
Sequence = B2 (RUFY1 RING domain); result = 0
Sequence = B3 (VPS8 RING domain); result = 0
Sequence = B4 (MKRN3 RING domain); result = 0
Sequence = B5 (RNF103 RING domain); result = 0
Sequence = ASEEEFQFLRCQQCQAEAKCPKLLPCLHTLCSGCLEASGMQCPICQAPWPLGADTP (PML RING domain (UniProt P29590)); result = 0
Sequence = B6 (RING1 RING domain); result = 0
Sequence = B7 (TRIM11 RING domain); result = 0
Sequence = DDVLTKDAGECVICLEELLQGDTIARLPCLCIYHKSCIDSWFEVNRSCPEHPAD (ZNRF1 RING domain (UniProt Q8ND25)); result = 0
Sequence = B8 (HLTF RING domain); result = 0
Sequence = B9 (BFAR RING domain); result = 0
Sequence = B10 (CNOT4 RING domain); result = 0

Study 4
Target: CCNA1, cyclin fold, Cln2 fusion (human)
Method: yeast growth competition, sequencing
Sample: yeast
Setting: weak parent motif
Baseline: not given
Reading: higher = stronger binding
Endpoint: normalised enrichment score
Starting sequence: RB1 docking peptide (human); PKPLKKLRFDIEG
Substitution = PKPLKKLRFDHEG [I11H]; result = 0.491
Substitution = PKPLKKLRFDING [E12N]; result = 0.196
Substitution = PKPRKKLRFDIEG [L4R]; result = 0.315
Substitution = PKPLKKLRADIEG [F9A]; result = 0.436
Substitution = PKPLKKLRFMIEG [D10M]; result = 0.414
Substitution = PKPLKPLRFDIEG [K6P]; result = 0.177
Substitution = PKPLKKLRFPIEG [D10P]; result = 0.525
Substitution = PKPLCKLRFDIEG [K5C]; result = 0.0898
Substitution = EKPLKKLRFDIEG [P1E]; result = 0.535
Substitution = PVPLKKLRFDIEG [K2V]; result = 0.591
Substitution = PKPLKKLRFQIEG [D10Q]; result = 0.103
Substitution = PEPLKKLRFDIEG [K2E]; result = 0.138
Substitution = PKPLKKLRFDIHG [E12H]; result = -0.115
Substitution = PKPLKKLRFDIKG [E12K]; result = -0.13
Substitution = PKPLKKLCFDIEG [R8C]; result = 0.0897
Substitution = PKPLKKLKFDIEG [R8K]; result = 0.248
Substitution = PKPLGKLRFDIEG [K5G]; result = 0.211
Substitution = PKPLKKLRFDIEY [G13Y]; result = -0.365
Substitution = IKPLKKLRFDIEG [P1I]; result = 0.214
Substitution = PKPLKKLRFDITG [E12T]; result = 0.577

Repeated from above (study 2):
Substitution = E147L; result = 9.26%
Substitution = I33A; result = 1.08%
Substitution = I79H; result = 21.7%
Substitution = S140P; result = 5.73%
Substitution = N85I; result = 70.4%
Substitution = E152H; result = 4.68%
Substitution = W134A; result = 5.68%
